# Experimental data gathered from unrelated publications.
# Each line is one published result; not all experiments were run side by side. Numbers after ± are the reported error.
# ESR2: Estrogen receptor beta (ESR2, Homo sapiens, UniProt Q92731)
# UniProt Q92731, sequence (whole entry, looked up): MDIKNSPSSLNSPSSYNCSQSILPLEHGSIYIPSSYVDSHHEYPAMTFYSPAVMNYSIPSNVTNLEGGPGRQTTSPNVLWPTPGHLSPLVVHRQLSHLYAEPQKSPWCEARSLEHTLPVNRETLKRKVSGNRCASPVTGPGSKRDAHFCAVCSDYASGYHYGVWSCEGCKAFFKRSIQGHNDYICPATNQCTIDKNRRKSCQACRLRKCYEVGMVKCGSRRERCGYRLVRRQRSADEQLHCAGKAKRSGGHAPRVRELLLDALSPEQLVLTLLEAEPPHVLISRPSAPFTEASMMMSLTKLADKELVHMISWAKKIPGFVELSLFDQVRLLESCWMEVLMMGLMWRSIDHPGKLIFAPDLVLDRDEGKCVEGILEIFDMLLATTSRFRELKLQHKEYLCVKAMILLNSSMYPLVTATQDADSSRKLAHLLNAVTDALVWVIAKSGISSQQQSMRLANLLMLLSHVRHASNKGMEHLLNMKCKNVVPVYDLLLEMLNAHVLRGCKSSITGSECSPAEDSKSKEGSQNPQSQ
# BRAP ZnF-UBD domain: BRCA1-associated protein, ZnF-UBD domain (BRAP, Homo sapiens, UniProt Q7Z569)
# UniProt Q7Z569, sequence (whole entry, looked up): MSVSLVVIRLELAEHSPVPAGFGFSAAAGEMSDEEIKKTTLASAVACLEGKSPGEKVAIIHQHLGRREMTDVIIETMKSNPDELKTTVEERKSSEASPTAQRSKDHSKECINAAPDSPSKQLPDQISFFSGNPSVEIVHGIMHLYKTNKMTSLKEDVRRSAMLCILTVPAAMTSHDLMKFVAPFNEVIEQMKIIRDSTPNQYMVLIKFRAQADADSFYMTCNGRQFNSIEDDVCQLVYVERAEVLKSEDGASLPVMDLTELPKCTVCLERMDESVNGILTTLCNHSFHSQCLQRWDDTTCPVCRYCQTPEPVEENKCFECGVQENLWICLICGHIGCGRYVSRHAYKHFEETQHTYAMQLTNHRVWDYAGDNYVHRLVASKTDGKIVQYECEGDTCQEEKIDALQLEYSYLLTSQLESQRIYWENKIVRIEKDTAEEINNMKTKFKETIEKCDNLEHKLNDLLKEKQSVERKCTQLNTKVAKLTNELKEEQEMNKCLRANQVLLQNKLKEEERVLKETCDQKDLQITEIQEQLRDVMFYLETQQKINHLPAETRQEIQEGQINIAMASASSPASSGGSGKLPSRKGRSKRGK
# VCP: Transitional endoplasmic reticulum ATPase (VCP, Homo sapiens, UniProt P55072)
# UniProt P55072, sequence (whole entry, looked up): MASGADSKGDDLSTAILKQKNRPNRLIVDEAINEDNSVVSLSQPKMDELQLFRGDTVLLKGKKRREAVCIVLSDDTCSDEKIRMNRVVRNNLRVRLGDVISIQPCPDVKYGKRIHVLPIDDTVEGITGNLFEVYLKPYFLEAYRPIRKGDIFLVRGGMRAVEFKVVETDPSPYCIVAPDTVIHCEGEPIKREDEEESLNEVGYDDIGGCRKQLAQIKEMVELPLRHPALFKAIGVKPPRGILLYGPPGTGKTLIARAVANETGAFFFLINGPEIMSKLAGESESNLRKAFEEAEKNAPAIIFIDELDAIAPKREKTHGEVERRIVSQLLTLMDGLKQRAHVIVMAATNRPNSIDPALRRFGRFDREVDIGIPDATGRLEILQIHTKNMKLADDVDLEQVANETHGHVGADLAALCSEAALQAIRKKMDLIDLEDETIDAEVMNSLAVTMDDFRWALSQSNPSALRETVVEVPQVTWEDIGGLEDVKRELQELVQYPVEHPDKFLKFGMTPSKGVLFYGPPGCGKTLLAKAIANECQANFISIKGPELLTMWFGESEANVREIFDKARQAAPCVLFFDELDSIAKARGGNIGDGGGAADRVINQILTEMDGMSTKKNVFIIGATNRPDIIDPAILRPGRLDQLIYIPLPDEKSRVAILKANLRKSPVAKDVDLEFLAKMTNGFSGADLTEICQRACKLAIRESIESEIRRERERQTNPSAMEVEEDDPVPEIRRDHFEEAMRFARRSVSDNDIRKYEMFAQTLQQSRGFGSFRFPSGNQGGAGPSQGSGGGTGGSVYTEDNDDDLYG
# GPR84: G-protein coupled receptor 84 (GPR84, Homo sapiens, UniProt Q9NQS5)
# UniProt Q9NQS5, sequence (whole entry, looked up): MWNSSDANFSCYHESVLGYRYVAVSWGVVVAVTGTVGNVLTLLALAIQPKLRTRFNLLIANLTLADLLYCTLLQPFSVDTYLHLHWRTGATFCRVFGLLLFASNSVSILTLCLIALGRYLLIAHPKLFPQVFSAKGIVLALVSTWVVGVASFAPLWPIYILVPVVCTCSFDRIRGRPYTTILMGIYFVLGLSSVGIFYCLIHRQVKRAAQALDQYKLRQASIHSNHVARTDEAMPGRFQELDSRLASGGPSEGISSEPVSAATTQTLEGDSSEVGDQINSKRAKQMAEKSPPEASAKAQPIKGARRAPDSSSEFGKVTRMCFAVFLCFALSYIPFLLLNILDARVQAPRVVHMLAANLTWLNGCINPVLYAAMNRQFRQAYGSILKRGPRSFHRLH
# UniProt Q92633, sequence (whole entry, unmodified, looked up): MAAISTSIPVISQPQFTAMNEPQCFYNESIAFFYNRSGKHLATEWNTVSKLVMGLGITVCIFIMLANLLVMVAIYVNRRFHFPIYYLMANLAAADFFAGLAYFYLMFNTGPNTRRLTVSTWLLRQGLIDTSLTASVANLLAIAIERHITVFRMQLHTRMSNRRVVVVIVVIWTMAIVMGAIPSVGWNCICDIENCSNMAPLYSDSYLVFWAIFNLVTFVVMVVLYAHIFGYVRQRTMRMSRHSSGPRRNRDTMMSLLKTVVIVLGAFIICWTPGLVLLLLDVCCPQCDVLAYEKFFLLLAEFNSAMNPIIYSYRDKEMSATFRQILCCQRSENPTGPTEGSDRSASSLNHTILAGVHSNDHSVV
target,assay,test system,setting,endpoint,value,SMILES
ESR2,"array formation, agonist",GFP-ERβ PRL-HeLa,1 h,EC50,8.62 µM,C[C@@H]1O[C@@H](OC[C@H]2O[C@@H](Oc3c(-c4ccc(O)c(O)c4)oc4cc(O)cc(O)c4c3=O)[C@H](O)[C@@H](O)[C@@H]2O)[C@H](O)[C@H](O)[C@H]1O
BRAP ZnF-UBD domain,,,,Kd,483 µM,O=C(O)CCc1ccccc1OCc1ccccn1
VCP,"enzyme activity, inhibitor",,,IC50,3.8 ± 1.2 µM,Fc1ccc(Nc2nc(NCc3ccccc3)c3ccccc3n2)cc1
ESR2,"array formation, agonist",GFP-ERβ PRL-HeLa,1 h,EC50,4.42 µM,O=C(CCc1ccc(O)cc1)c1c(O)cc(O)cc1O[C@@H]1O[C@H](CO)[C@@H](O)[C@H](O)[C@H]1O
BRAP ZnF-UBD domain,,,,Kd,315 µM,Cc1sc2ncn(CC(=O)O)c(=O)c2c1C
GPR84,agonist,,,EC50,0.302 µM,O=c1cc(NCCc2cccc(Cl)c2)[nH]c(=O)[nH]1
BRAP ZnF-UBD domain,,,,Kd,> 1000 µM,O=C(O)CC1Oc2ccccc2NC1=O (centres unmarked)
GPR84,agonist,,,EC50,1.82 µM,O=c1cc(N2CCN(c3ccc(Cl)cc3)CC2)[nH]c(=O)[nH]1
VCP,"enzyme activity, inhibitor",,,IC50,15 ± 2 µM,Cc1cccc(-c2nc(NCc3ccc(F)cc3)c3ccccc3n2)c1
BRAP ZnF-UBD domain,,,,Kd,234 µM,Cc1ccc(C(=O)O)cc1S(=O)(=O)Nc1cccc(C(=O)CCC(=O)O)c1
ESR2,"array formation, agonist",GFP-ERβ PRL-HeLa,1 h,EC50,0.185 µM,O=c1cc(-c2ccccc2)oc2cc(O)ccc12
BRAP ZnF-UBD domain,,,,Kd,> 1000 µM,O=C(O)Cn1ccc2ccccc2c1=O
ESR2,"array formation, agonist",GFP-ERβ PRL-HeLa,1 h,EC50,0.939 µM,COc1ccc(-c2cc(=O)c3c(O)cc(OC)cc3o2)cc1
GPR84,agonist,,,EC50,0.755 ± 0.373 µM,COc1ccc(CCNc2cc(=O)[nH]c(=O)[nH]2)cc1
VCP,"enzyme activity, inhibitor",,,IC50,34 ± 11 µM,c1ccc(CNc2nc(N3CCN(c4ccccc4)CC3)nc3ccccc23)cc1
"Lysophosphatidic acid receptor 1 (LPAR1, Homo sapiens, UniProt Q92633, L297A)","Gi protein dissociation, agonist, NanoBiT",HEK293T,,EC50,0.041 µM,CCc1oc2c([C@H](CO)N(CC)CC)cccc2c1C
ESR2,"array formation, agonist",GFP-ERβ PRL-HeLa,1 h,EC50,1.89 µM,COc1ccc(-c2oc3c(CC=C(C)C)c(O[C@@H]4O[C@H](CO)[C@@H](O)[C@H](O)[C@H]4O)cc(O)c3c(=O)c2O[C@@H]2O[C@@H](C)[C@H](O)[C@@H](O)[C@H]2O[C@@H]2O[C@@H](C)[C@H](O)[C@@H](O)[C@H]2O)cc1
VCP,"enzyme activity, inhibitor",,,IC50,> 30 µM,c1ccc(-c2nc(N3CCc4ccccc4C3)c3ccccc3n2)cc1
BRAP ZnF-UBD domain,,,,Kd,646 µM,O=C(O)CCC(=O)N1CCc2ccccc21
VCP,"enzyme activity, inhibitor",,,IC50,11 ± 6 µM,O=[N+]([O-])c1ccc(-c2nc(NCc3ccccc3)c3ccccc3n2)cc1
GPR84,cAMP,,,EC50,0.0115 µM,CCCCCCCNc1cc(=O)[nH]c(=O)[nH]1
ESR2,"array formation, agonist",GFP-ERβ PRL-HeLa,1 h,EC50,0.309 µM,O=C(/C=C/c1ccc(O)cc1)c1ccc(O)cc1O
BRAP ZnF-UBD domain,,,,Kd,> 1000 µM,O=C(O)Cc1cccc2cccnc12
ESR2,"array formation, agonist",GFP-ERβ PRL-HeLa,1 h,EC50,1.81 µM,COc1c(O)cc2oc(-c3ccc(O)cc3)cc(=O)c2c1O
GPR84,agonist,,,EC50,0.129 µM,Oc1cc(NCCCCc2ccccc2)nc(O)n1
BRAP ZnF-UBD domain,,,,Kd,993 µM,O=C(O)CCn1c(=O)oc2ccccc21
GPR84,agonist,,,EC50,0.603 µM,O=c1cc(N2CCC(Cc3ccccc3)CC2)[nH]c(=O)[nH]1
VCP,"enzyme activity, inhibitor",,,IC50,49 ± 19 µM,Cc1ccc(Nc2nc(Nc3cccc(Cl)c3)nc3ccccc23)cc1
GPR84,"cAMP level, agonist",human cells,,EC50,1.99 ± 0.59 µM,CCCCCCCCNc1[nH]c(=O)[nH]c(=O)c1Br
ESR2,"array formation, agonist",GFP-ERβ PRL-HeLa,1 h,EC50,0.178 µM,COc1ccc(-c2cc(=O)c3c(O)cc(O[C@@H]4O[C@H](CO[C@@H]5O[C@@H](C)[C@H](O)[C@@H](O)[C@H]5O)[C@@H](O)[C@H](O)[C@H]4O)cc3o2)cc1
VCP,"enzyme activity, inhibitor",,,IC50,3.1 ± 0.5 µM,COc1cccc2c(NCc3ccccc3)nc(N3CCN(C)c4ccccc43)nc12
GPR84,cAMP,,,EC50,0.112 µM,CCCCCCN(C)c1cc(=O)[nH]c(=O)[nH]1

# For quick reference, copied from above:
target,assay,test system,setting,endpoint,value,SMILES
BRAP ZnF-UBD domain,,,,Kd,> 1000 µM,O=C(O)CC1Oc2ccccc2NC1=O (centres unmarked)
BRAP ZnF-UBD domain,,,,Kd,> 1000 µM,O=C(O)Cn1ccc2ccccc2c1=O
VCP,"enzyme activity, inhibitor",,,IC50,34 ± 11 µM,c1ccc(CNc2nc(N3CCN(c4ccccc4)CC3)nc3ccccc23)cc1
